Results pooled from the literature.
Compare with care: the assays were run in different laboratories. Values joined by “and” are separate records of one study, mostly repeats; a detail may differ. ± gives the spread as reported.
SLC47A2: Multidrug and toxin extrusion protein 2 (SLC47A2, Homo sapiens, UniProt Q86VL8)
UniProt Q86VL8, sequence (whole entry, looked up): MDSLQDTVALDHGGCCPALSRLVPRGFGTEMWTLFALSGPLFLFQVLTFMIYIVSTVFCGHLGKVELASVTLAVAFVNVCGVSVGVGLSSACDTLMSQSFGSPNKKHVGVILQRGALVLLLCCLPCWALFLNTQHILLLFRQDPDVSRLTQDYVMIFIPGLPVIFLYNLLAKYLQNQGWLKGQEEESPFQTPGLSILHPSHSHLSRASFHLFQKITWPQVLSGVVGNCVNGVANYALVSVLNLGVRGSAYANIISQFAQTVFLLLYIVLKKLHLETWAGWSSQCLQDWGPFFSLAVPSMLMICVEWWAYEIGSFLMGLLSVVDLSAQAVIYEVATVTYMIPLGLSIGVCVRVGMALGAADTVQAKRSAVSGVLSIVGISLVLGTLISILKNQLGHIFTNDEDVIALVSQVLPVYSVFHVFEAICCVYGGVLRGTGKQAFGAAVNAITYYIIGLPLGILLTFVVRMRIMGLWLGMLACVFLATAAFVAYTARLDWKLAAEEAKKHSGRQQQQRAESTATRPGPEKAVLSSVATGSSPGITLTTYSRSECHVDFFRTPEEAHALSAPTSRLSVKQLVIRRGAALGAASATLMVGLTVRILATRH
SLCO1B3: Solute carrier organic anion transporter family member 1B3 (SLCO1B3, Homo sapiens, UniProt Q9NPD5)
UniProt Q9NPD5, sequence (whole entry, looked up): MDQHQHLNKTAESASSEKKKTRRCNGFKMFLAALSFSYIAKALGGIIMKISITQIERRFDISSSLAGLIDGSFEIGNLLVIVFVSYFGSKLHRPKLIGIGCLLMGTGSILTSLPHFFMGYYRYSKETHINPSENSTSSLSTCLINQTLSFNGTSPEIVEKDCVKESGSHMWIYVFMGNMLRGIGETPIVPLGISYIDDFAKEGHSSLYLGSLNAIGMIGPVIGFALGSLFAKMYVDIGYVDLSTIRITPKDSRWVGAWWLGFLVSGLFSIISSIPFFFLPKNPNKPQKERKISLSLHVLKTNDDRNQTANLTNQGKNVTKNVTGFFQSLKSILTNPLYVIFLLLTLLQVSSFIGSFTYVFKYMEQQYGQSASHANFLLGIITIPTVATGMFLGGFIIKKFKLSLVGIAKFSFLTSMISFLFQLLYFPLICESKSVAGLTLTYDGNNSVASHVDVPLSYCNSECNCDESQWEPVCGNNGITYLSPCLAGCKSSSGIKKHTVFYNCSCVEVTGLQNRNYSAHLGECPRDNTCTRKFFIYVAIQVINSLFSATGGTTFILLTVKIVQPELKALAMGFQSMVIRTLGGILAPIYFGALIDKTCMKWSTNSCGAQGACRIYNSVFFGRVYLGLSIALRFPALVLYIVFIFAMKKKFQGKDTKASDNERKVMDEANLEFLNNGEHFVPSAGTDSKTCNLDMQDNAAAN
UniProt Q9UNQ0, sequence (whole entry, looked up): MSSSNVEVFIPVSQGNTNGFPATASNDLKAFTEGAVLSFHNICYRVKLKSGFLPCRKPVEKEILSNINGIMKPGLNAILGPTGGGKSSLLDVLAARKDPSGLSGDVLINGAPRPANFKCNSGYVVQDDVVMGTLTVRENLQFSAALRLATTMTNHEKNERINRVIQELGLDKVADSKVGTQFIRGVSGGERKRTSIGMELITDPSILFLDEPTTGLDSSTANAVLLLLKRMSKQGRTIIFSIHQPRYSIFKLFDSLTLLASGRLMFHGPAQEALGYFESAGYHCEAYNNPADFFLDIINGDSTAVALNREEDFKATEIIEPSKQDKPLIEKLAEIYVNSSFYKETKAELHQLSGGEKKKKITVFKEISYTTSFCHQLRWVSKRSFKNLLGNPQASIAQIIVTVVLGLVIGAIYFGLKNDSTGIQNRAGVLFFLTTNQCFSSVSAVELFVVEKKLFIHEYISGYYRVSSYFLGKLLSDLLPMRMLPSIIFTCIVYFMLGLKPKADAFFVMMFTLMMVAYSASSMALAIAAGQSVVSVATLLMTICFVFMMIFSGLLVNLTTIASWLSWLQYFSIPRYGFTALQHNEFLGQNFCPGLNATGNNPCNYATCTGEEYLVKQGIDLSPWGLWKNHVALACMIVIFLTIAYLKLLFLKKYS

`N#Cc1c(Nc2ccc(F)cc2)n[nH]c1NS(=O)(=O)c1ccc2ccccc2c1` has a CC50 of 8 µM (Huh-7).
Under “grade 1 or 2 Hematuria”, `COc1cc2c(Oc3ccc4[nH]c(C)cc4c3F)ccnc2cc1OCC1(N)CC1` is recorded as 13.3% (paediatric recurrent refractory sarcoma; 8 mg/kg).
For `Cc1ncccc1-c1nc2cc(C(=O)NCCCc3ccccc3)ccc2o1`, the cytotoxicity efficacy was 0% (Vero-E6; CellTiter-Glo ATP; concentration not given, 72 h, second round 5-point; reference: DMSO 0%, hyamine -100%, more negative, more toxic).
`O=NN1CCN(c2cc3c(cc2F)c(=O)c(C(=O)O)cn3C2CC2)CC1`: micronucleus induction “negative” (TK6).
For `CO[C@H]1C[C@@H]2CC[C@@H](C)[C@@](O)(O2)C(=O)C(=O)N2CCCC[C@H]2C(=O)O[C@H]([C@H](C)C[C@@H]2CC[C@@H](OC(=O)NCCOCCOCCOCCOCCOCCOCCOCCOCCC(=O)N3CCc4cc(Cn5nc(-c6ccc7oc(N)nc7c6)c6c(N)ncnc65)ccc4C3)[C@H](OC)C2)C[C@@H](O)[C@H](C)/C=C(\C)[C@@H](O)[C@@H](OC)C(=O)[C@H](C)C[C@H](C)/C=C/C=C/C=C/1C`, “incidence of TEAE” read 40% (advanced solid tumour patients; intravenous, 1.6 mg/3 mg weekly, grade ≥3).
With `CC1CCN(CCCNC(=O)c2cc(Sc3ccc(F)cc3)nc3ccccc23)CC1` the cytotoxicity efficacy was 0% (Vero-E6; CellTiter-Glo ATP; concentration not given, 72 h, second round 5-point; reference: DMSO 0%, hyamine -100%, more negative, more toxic).
`O=[N+]([O-])c1ccc(N2CCC(NCCC(O)c3ccc(F)c4ccccc34)CC2)c(C(F)(F)F)c1` (stereo not drawn) gave an induction factor of 0.7 (Salmonella typhimurium; genotoxicity, SOS/umu test; TA1535/pSK1002; 0.004 mg/mL, 4 h, with S9, lower range).
With `Cc1oncc1C(=O)Nc1ccc(C(F)(F)F)cc1` the inhibition was 40.1% (SLC47A2; transport, inhibitor; transiently transfected cells; 100 µM, 10 (unit not given), added: thiamine).
For `[Cl-].[Cl-].[Pt+2].[Ru+2].c1ccc(-c2nc3ccccc3nc2-c2ccccn2)nc1.c1cnc2c(c1)ccc1cccnc12.c1cnc2c(c1)ccc1cccnc12`, the survival rate was 83.3 ± 3.4% (Danio rerio; embryos; 30 µM, 48 h).
The inhibition of `COc1ccc2cc1Oc1ccc(cc1)C[C@H]1c3cc(c(OC)cc3CCN1C)Oc1c(OC)c(OC)cc3c1[C@H](C2)N(C)CC3` is reported as 8.1% (Broad substrate specificity ATP-binding cassette transporter ABCG2 (ABCG2, Homo sapiens, UniProt Q9UNQ0); transport, inhibitor; 10 µM, 5 (unit not given), pH 7, added: CCK-8).
With `Cc1cc(C(=O)NC(C)(C)COc2cccc3c2C(N)=NS(=O)(=O)N3)cc(C)n1` the revertant ratio was 0.8 (Salmonella typhimurium; Ames test, confirmatory; TA1535; 5000 µg/plate, added: rat liver S9; reference: solvent control).
`CCCC(C(=O)c1ccc(O)c(OC)c1)N1CCCC1` (stereo not drawn) has a plasma concentration of 133 ± 8.8 ng/mL (LC-MS/MS; rat, trunk blood plasma; subcutaneous, 4 mg/kg MDPV, 240 min).
`O=C(Nc1cccc(Cl)c1)C1CCCN(Cc2cccc(-c3ccc(F)cc3F)c2)C1` (stereo not drawn) gave a maximum response of 2.17% (Vero-E6; CellTiter-Glo ATP; 72 h, retest 8-point duplicates; reference: DMSO 0%, hyamine -100%, more negative, more toxic).
The recovery of `CN/C(=N\[N+](=O)[O-])NCc1cnc(Cl)s1` is reported as 54% (soil; 56 days, nominal 0.37).
`CCCCc1nc(Cl)c(CO)n1Cc1ccc(-c2ccccc2-c2nn[nH]n2)cc1` has an inhibition of 99.7% (SLCO1B3; transport, inhibitor; transiently transfected cells; 100 µM, 10 (unit not given), added: CCK-8).
`CCCC(C(=O)c1ccc2c(c1)OCO2)N1CCCC1.Cl` (racemic) has a plasma concentration of 318 ± 24.4 ng/mL (LC-MS/MS; rat, trunk blood plasma; subcutaneous, 2 mg/kg, 40 min).
With `Cc1c(Cl)cccc1-c1ccc(CNCCSc2nnnn2-c2ccccc2)o1` the maximum response was -1.63% (Vero-E6; CellTiter-Glo ATP; 72 h, first round 5-point; reference: DMSO 0%, hyamine -100%, more negative, more toxic).
The inhibition of `CCN(CCO)CCCC(C)Nc1ccnc2cc(Cl)ccc12` (stereo not drawn) is reported as 63.4% (SLCO1B3; transport, inhibitor; transiently transfected cells; 100 µM, 10 (unit not given), added: CCK-8).
The cytotoxicity efficacy of `CN(C)c1cccc(C(=O)NCC2CCN(c3cc(-c4ccc(Cl)cc4)n[nH]3)CC2)c1` is reported as -22.3% (Vero-E6; CellTiter-Glo ATP; concentration not given, 72 h, retest 8-point duplicates; reference: DMSO 0%, hyamine -100%, more negative, more toxic).
`O=C(c1ccc(F)c(F)c1Nc1ccc(I)cc1F)N1CC(O)([C@@H]2CCCCN2)C1`: “fatal adverse events” 0% (patients aged 6 to sample A years; oral, dose not given).
For `CCCCN(CCCNC(=O)c1cc(Nc2cccc(SC)c2)nc2ccccc12)Cc1ccccc1`, the maximum response was -8.97% (Vero-E6; CellTiter-Glo ATP; 72 h, second round 5-point; reference: DMSO 0%, hyamine -100%, more negative, more toxic).
For `O=c1ccc2ccccc2o1`, the chance response was 0% (NHEK; cell count; concentration not given, 6 h, XBP1 panel).
Under “patients with adverse event”, `CN1CC[C@@H](c2c(O)cc(O)c3c(=O)cc(-c4ccc(C(F)(F)F)cc4Cl)oc23)[C@@H]1CO` is recorded as 0% (measured: Hyperglycemia; relapsed AML; oral, 100 mg, grade 3-4, intermittent dosing).
Under haemoglobin level, `CNC(=O)c1c(C)oc2cc(Oc3ccnc4cc(OCCN5CCOCC5)ccc34)ccc12` is recorded as “no effect” (patients; dose not given, dose cohorts; reference: once daily versus twice daily).
Under “participants with adverse events”, `CCC(CC)COC(=O)[C@H](C)N[P@](=O)(OC[C@H]1O[C@@](C#N)(c2ccc3c(N)ncnn23)[C@H](O)[C@@H]1O)Oc1ccccc1` is recorded as 22% (healthy human; intravenous, 100 mg).
The maximum response of `CCn1c2ccccc2c2cc(CN3CCN(Cc4cccc(Cl)c4)CC3)ccc21` is reported as -3.35% (Vero-E6; CellTiter-Glo ATP; 72 h, retest 8-point duplicates; reference: DMSO 0%, hyamine -100%, more negative, more toxic).
`CC(C)C[C@H](NC(=O)[C@H](C)NC(=O)[C@@H](NC(=O)[C@H](CCCNC(=N)N)NC(=O)[C@H](CC(C)C)NC(=O)[C@H](Cc1c[nH]c2ccccc12)NC(=O)[C@@H]1CCCN1C(=O)[C@@H](N)CCCCN)C(C)C)C(=O)N[C@@H](CS)C(=O)N1CCC[C@H]1C(=O)NCC(=O)O` gave a viability of 88.4% and 97% and 94.9% (HEp-2; WST-1; 512 µM, 24 h).
With `C[C@H]1CN(N=O)CCc2ccc(Cl)cc21` the relative survival was 99.6% (TK6; 1.25 µM, 4 h, added: hamster liver S9; reference: vehicle).
With `CN(C)C(=O)COC(=O)Cc1ccc(OC(=O)c2ccc(NC(=N)N)cc2)cc1` the inhibition was 93.4% (SLC47A2; transport, inhibitor; transiently transfected cells; 100 µM, 10 (unit not given), added: thiamine).
`O=C1c2c(O)c(=O)ccn2N([C@@H]2c3ccccc3SCc3c2ccc(F)c3F)[C@@H]2COCCN12` has a plasma concentration of 2.08 ng/mL (BALB/c mice, plasma; oral, 0.5 mg/kg baloxavir marboxil, 4 h).
The cytotoxicity efficacy of `O=C(NCCCN1CCCCCC1)c1ccc2c(c1)sc1nc(-c3ccccc3)cn12` is reported as -30.2% (Vero-E6; CellTiter-Glo ATP; concentration not given, 72 h, retest 8-point duplicates; reference: DMSO 0%, hyamine -100%, more negative, more toxic).
`CC(=O)c1c(C)c2cnc(Nc3ccc(C4CCN(CCS(C)(=O)=O)CC4)cn3)nc2n(C2CCCC2)c1=O` — result for “patients with TRAE ≥grade 3”: 52.6% (HR+/HER2- advanced breast cancer patients; oral, dose not given).
`CC(C)C[C@@H](N)C(=O)N[C@H](CC(C)C)C(=O)N[C@H](Cc1ccccc1)C(=O)N[C@H](Cc1ccccc1)C(=O)N[C@H](C)C(=O)N[C@H](CCC(=O)O)C(N)=O` gave a viability of 91.3% (NGF-differentiated PC-12 neurons; 160 µM, 24 h; reference: untreated).
For `COc1cccc(-c2n[nH]c(SCc3ccccn3)n2)c1OC`, “revertant colonies per plate” read 4 (Salmonella typhimurium; Ames test, plate incorporation; TA1537; 2.0 mg/plate, with rat liver S9).
Under “List of Complaints score”, `CCN(CC)C(=O)[C@@H]1C=C2c3cccc4[nH]cc(c34)C[C@H]2N(C)C1` is recorded as -1 (measured: hypersensitivity to cold; healthy volunteers; dose not given, 12 to 24 h; reference: placebo, direction not given).
`CC(=O)N1CCC(C(=O)N2CCN3C(=O)c4cc(-c5ccccc5)ccc4NC(=O)C3C2)CC1` (stereo not drawn) — result for “revertants per plate”: 37 (Salmonella typhimurium; TA98; 1581 µg/plate, added: rat liver S9).

For quick reference, copied from above:
`CC(C)C[C@H](NC(=O)[C@H](C)NC(=O)[C@@H](NC(=O)[C@H](CCCNC(=N)N)NC(=O)[C@H](CC(C)C)NC(=O)[C@H](Cc1c[nH]c2ccccc12)NC(=O)[C@@H]1CCCN1C(=O)[C@@H](N)CCCCN)C(C)C)C(=O)N[C@@H](CS)C(=O)N1CCC[C@H]1C(=O)NCC(=O)O` gave a viability of 88.4% and 97% and 94.9% (HEp-2; WST-1; 512 µM, 24 h).
For `[Cl-].[Cl-].[Pt+2].[Ru+2].c1ccc(-c2nc3ccccc3nc2-c2ccccn2)nc1.c1cnc2c(c1)ccc1cccnc12.c1cnc2c(c1)ccc1cccnc12`, the survival rate was 83.3 ± 3.4% (Danio rerio; embryos; 30 µM, 48 h).
For `CCCCN(CCCNC(=O)c1cc(Nc2cccc(SC)c2)nc2ccccc12)Cc1ccccc1`, the maximum response was -8.97% (Vero-E6; CellTiter-Glo ATP; 72 h, second round 5-point; reference: DMSO 0%, hyamine -100%, more negative, more toxic).
With `CN(C)C(=O)COC(=O)Cc1ccc(OC(=O)c2ccc(NC(=N)N)cc2)cc1` the inhibition was 93.4% (SLC47A2; transport, inhibitor; transiently transfected cells; 100 µM, 10 (unit not given), added: thiamine).
`CCCCc1nc(Cl)c(CO)n1Cc1ccc(-c2ccccc2-c2nn[nH]n2)cc1` has an inhibition of 99.7% (SLCO1B3; transport, inhibitor; transiently transfected cells; 100 µM, 10 (unit not given), added: CCK-8).
`CCCC(C(=O)c1ccc(O)c(OC)c1)N1CCCC1` (stereo not drawn) has a plasma concentration of 133 ± 8.8 ng/mL (LC-MS/MS; rat, trunk blood plasma; subcutaneous, 4 mg/kg MDPV, 240 min).
